Assay results collected from several papers.
Protocols differ between the studies behind these lines. “And” joins repeats or separate records; there may be more than shown. ± gives the spread as reported.
NT5E membrane-bound form: 5'-nucleotidase, membrane-bound form (NT5E, Homo sapiens, UniProt P21589)
OPRK1: Kappa-type opioid receptor (OPRK1, Homo sapiens, UniProt P41145)
MMP13: Collagenase 3 (MMP13, Homo sapiens, UniProt P45452)
CSNK1E: Casein kinase I isoform epsilon (CSNK1E, Homo sapiens, UniProt P49674)
HTR6: 5-hydroxytryptamine receptor 6 (HTR6, Homo sapiens, UniProt P50406)
SIRT5: NAD-dependent protein deacylase sirtuin-5, mitochondrial (SIRT5, Homo sapiens, UniProt Q9NXA8)
ADORA2A: Adenosine receptor A2a (ADORA2A, Homo sapiens, UniProt P29274)

SMILES	target	test	system	conditions	inhibition
COCCOCCOCCNC(=O)CSc1nc(C)cc(-c2ccccc2)c1C#N	NT5E membrane-bound form	CD73 activity, inhibitor, malachite green phosphate	MDA-MB-231	100 µM, together with: 200 µM AMP	8 ± 9%
CC(C)c1noc2ncc(C(=O)c3ccccc3O)cc12	PACC1 (Homo sapiens, UniProt Q9H813)	ion current, inhibitor, whole-cell patch clamp		10 µM	0% and 7.2% and 1.05% and 0.68%
CCS(=O)(=O)c1nc(S(=O)(=O)c2ccccc2Cl)c(N2CCN(C)C(=O)[C@H]2C)s1	OPRK1			10 µM	5.73%
Cc1cc(C)c(C#N)c(SCC(=O)Nc2cccnc2)n1	NT5E membrane-bound form	CD73 activity, inhibitor, malachite green phosphate	MDA-MB-231	100 µM, together with: 200 µM AMP	-6 ± 7%
O=C(Cn1nc(C(F)(F)F)c2c1CCCC2)NC1CCC1	Inward rectifier potassium channel (Aedes aegypti, UniProt L0EQ40)	inward K+ current, two-electrode voltage clamp	Xenopus oocytes	25 µM, pH 7.5, holding -140 mV, together with: K+ 25 mM	~20%
Cn1cc(-c2cnc3ccc(NC(=O)Nc4ccc(F)c(Br)c4)cc3n2)cn1	Mitogen-activated protein kinase kinase kinase 3 (MAP3K3, Homo sapiens, UniProt Q99759)	kinase binding, KiNativ profiling, item: Lys1 peptide	PANC-1 lysate	2.5 µM	1.3%
CNc1cc(Oc2cc(C(=O)Nc3cc(N4CCN(C)CC4)cc(C(F)(F)F)c3)ccc2C)ncn1	STE20-like serine/threonine-protein kinase (SLK, Homo sapiens, UniProt Q9H2G2)	probe labelling, KiNativ	Huh-7, live cells	1 µM, Lys1 site	-17.4%
C=C(C)[C@@H]1CC[C@]2(C)CC[C@]3(C)[C@H](CC[C@@H]4[C@@]5(C)CC[C@H](O)C(C)(C)[C@@H]5CC[C@]43C)[C@@H]12	Xanthine dehydrogenase/oxidase (XDH, Bos taurus, UniProt P80457)	enzyme activity		25 µg/mL, bovine	< 0%
COc1ccc(S(=O)(=O)N(CC(=O)NO)CC(C)C)cc1	MMP13	inhibitor		0.1 µM	28.9 ± 0.305%
COc1cc(C(=O)NS(=O)(=O)c2ccccc2C)ccc1Cc1cn(C)c2ccc(NC(=O)OC3CCCC3)cc12	Volume-regulated anion channel subunit LRRC8C, part LRRC8A IL1 chimera (LRRC8C, Homo sapiens, UniProt Q8TDW0, L105R)	ion current, inhibitor, whole-cell patch clamp	HCT LRRC8-/- cells	1 µM, +100 mV	0.986% and 7.79% and 5.2% and 4.62% and -0.434% and 8.66%
O=C(NO)c1ccc(CN2CCCCc3ccccc32)c(F)c1	OPRK1	radioligand binding, radioligand displacement		10 µM, mean of replicates	17.1%
C=C(NC(=O)C(=C)NC(=O)c1csc(C2=N[C@@H]3c4csc(n4)[C@H]4NC(=O)c5csc(n5)[C@H]([C@](C)(O)[C@@H](C)O)NC(=O)[C@H]5CSC(=N5)/C(=C/C)NC(=O)[C@H]([C@@H](C)O)NC(=O)c5csc(n5)[C@]3(CC2)NC(=O)[C@H](C)NC(=O)C(=C)NC(=O)[C@H](C)NC(=O)[C@H]([C@@H](C)CC)N[C@@H]2C=Cc3c([C@H](C)O)cc(nc3[C@H]2O)C(=O)O[C@@H]4C)n1)C(N)=O	Thioredoxin reductase 2, mitochondrial (Txnrd2, Mus musculus, UniProt Q9JLT4)	enzyme activity		50 µM, 1 h, pH 8.0, 37 °C	no inhibition
Cc1cccc(-c2nc(-c3ccc(C#N)cc3)[nH]c2-c2ccncc2)c1	CSNK1E	kinase activity		1 µM	36%
Cc1ccc(CNC(=O)[C@H](CCc2ccccc2)NC(=O)[C@H](CCc2ccccc2)NC(=O)[C@H](CCc2ccccc2)NC(=O)c2cnc(C)cn2)cc1	Procathepsin L (CTSL, Homo sapiens, UniProt P07711)	enzyme activity		100 µM	12%
CN(C(=O)n1cnc(-c2ccc[n+]([O-])c2)c1)C1CCCCC1	HTR6			10 µM	-20%
Cc1ccnc(C)c1OC[C@H]1CN(CCN2CCc3ccccc32)CCO1	HTR6	radioligand binding		concentration not given, together with: [3H]LSD	3%
COCCOCCOCCNC(=O)c1sc2nc(C)cc(C(F)(F)F)c2c1N	NT5E membrane-bound form	CD73 activity, inhibitor, malachite green phosphate	MDA-MB-231	100 µM, together with: 200 µM AMP	3 ± 3%
NC/C(=C\F)COc1cccc(Cn2c(=S)[nH]c(=O)c3[nH]cnc32)c1	Amine oxidase copper-containing 3 (Canis lupus familiaris, UniProt A0A8I3MYY3)	inhibitor	dog adipose tissue	0.0002 µM	4.51%
CCN1/C(=C/C(C)=O)Sc2ccc(F)cc21	L-type calcium channel Phenylalkylamine site, rat	radioligand binding		concentration not given	10.4%
Fc1ccc(-c2ncn(-c3ccc(-c4ccccc4)cc3)c2-c2ccncc2)cc1	CSNK1E	inhibitor		1 µM	42%
O=C(NC1CCC1)[C@H](Cc1c[nH]c2ccccc12)NC(=O)[C@H](CCCCNC(=S)NCNc1cccc(B(O)O)c1)NS(=O)(=O)c1cccc(F)c1	SIRT5	enzyme activity, inhibitor		100 µM	17%
O=C(Nc1cccc2c(=O)cc(-c3nnn[nH]3)oc12)c1ccc(OCCCCc2ccccc2)cc1	Volume-regulated anion channel subunit LRRC8C, part LRRC8A IL1 chimera (LRRC8C, Homo sapiens, UniProt Q8TDW0)	ion current, inhibitor, whole-cell patch clamp	HCT LRRC8-/- cells, transfected	0.1 µM, low ionic strength swelling, -100 mV	-4.55% and -9.12% and 0.47% and 8.02%

SMILES	target	test	system	conditions	inhibition
COC(=O)c1ccc(NC(=O)CCSc2nc(C)cc(C)c2C#N)cc1	NT5E membrane-bound form	CD73 activity, inhibitor, malachite green phosphate	MDA-MB-231	100 µM, together with: 200 µM AMP	24 ± 8%
O=C(C#Cc1cn(Cc2ccccc2)c(=O)[nH]c1=O)NCc1ccc(F)cc1	MMP13			6.5 µM	51 ± 2%
O=C1NC(=O)C2(CCc3ccccc32)N1 (centres unmarked)	GABA-A receptor alpha-1/beta-3, with gamma-2 subunit (GABRA1/GABRB3, Homo sapiens, UniProt P14867+P28472)	reversal, anesthetic-enhanced desensitization		concentration not given	30%
CC[C@@H]1[C@H](F)C(=O)N[C@@H]1COc1nccc2cc(C(N)=O)c(OC)cc12	Serine/threonine-protein kinase D2 (PRKD2, Homo sapiens, UniProt Q9BZL6)	ATP-site probe binding, ActivX profiling, item: PKD2	THP-1 cell lysate	0.01 mM, Lys1 site	1.1%
CCOC(=O)c1ccc(NC(=O)CSc2nc(C)cc(-c3ccccc3)c2C#N)cc1	NT5E membrane-bound form	CD73 activity, inhibitor, malachite green phosphate	MDA-MB-231	100 µM, together with: 200 µM AMP	26 ± 6%
COc1c(C#N)ccnc1N1C2CCC1CN(C(=O)c1cccnc1-n1cccn1)C2	α1	binding		10 µM	-6.8%
Clc1cccc(OC[C@H]2CN(CCN3CCc4ccccc43)CCO2)c1	HTR6	radioligand binding		concentration not given, together with: [3H]LSD	9.2%
Oc1ccc(-c2nc(-c3ccncc3)c(-c3ccc(F)cc3)[nH]2)cc1	CSNK1E	inhibitor		1 µM	63%
Cc1ccnc(OC[C@H]2CN(CC(=O)N3CCc4ccccc43)CCO2)c1	HTR6	radioligand binding		concentration not given, together with: [3H]LSD	-17.5%
Cc1ccccc1C(=O)Nc1nc2ccccc2[nH]1	ADORA2A			30 µM	1 ± 1%
COc1cc(Cl)c(C(=O)N[C@@H](CN[C@H]2CC[C@@H](N)CC2)Cc2ccc(C#N)cc2)cc1-c1ccc(CN[C@H](C)c2ccc(C)cc2)o1	HTR6	agonist response, antagonist	human cells	10 µM, 5-HT6 antagonist	6%
O=C(Nc1nc2ccccc2[nH]1)c1ccccc1O	ADORA2A			30 µM	46 ± 5%
O=C(NC1CCC1)[C@H](Cc1c[nH]c2ccccc12)NC(=O)[C@H](CCCCNC(=S)NCCB(O)O)NS(=O)(=O)c1cccc(F)c1	SIRT5	enzyme activity, inhibitor		100 µM	15%
CCCCc1[nH]c2nc(N)nn2c(=O)c1Cc1cccc(Cl)c1	C-C chemokine receptor type 5 (CCR5, Homo sapiens, UniProt P51681)	β-arrestin recruitment, antagonist, Tango	U2OS	1 µM, together with: CCL3 at EC80	73%
Clc1cncc(OC[C@H]2CN(CCN3CCc4ccccc43)CCO2)c1	HTR6	radioligand binding		concentration not given, together with: [3H]LSD	8.5%
Cc1cc(C)c(C#N)c(SCC(=O)NCc2ccccc2)n1	NT5E membrane-bound form	CD73 activity, inhibitor, malachite green phosphate	MDA-MB-231	100 µM, together with: 200 µM AMP	3 ± 6%
CNc1cccc2cc(C(=O)Nc3ccc(C(=O)O)cc3)c(=O)[nH]c12	PDGFR	kinase activity, inhibitor		10 µM	9.7%
COc1cccc(F)c1Cn1cnc(-c2ccc(F)cc2)c1-c1ccncc1	CSNK1E	inhibitor		1 µM	82%
Cc1ccc(OC[C@H]2CN(CCN3CCc4ccccc43)CCO2)cn1	HTR6	radioligand binding		concentration not given, together with: [3H]LSD	10.9%
Cc1ccc(C(=O)Nc2ccc3ccccc3c2)o1	Inward rectifier potassium channel 2 (KCNJ2, Homo sapiens, UniProt P63252)	ion current, inhibitor, whole-cell patch clamp		10 µM	9.96% and 2.35% and 4.1% and 4.28% and 3.13%
COc1cc2c(cc1OC)C(=O)C(CC1CCN(Cc3ccccc3)CC1)C2 (centres unmarked)	HTR6	radioligand binding		concentration not given, together with: [3H]LSD	15.1%
COCCOCCOCCNC(=O)CSc1nc(C)cc(C)c1C#N	NT5E membrane-bound form	CD73 activity, inhibitor, malachite green phosphate	MDA-MB-231	100 µM, together with: 200 µM AMP	1 ± 8%

Repeated from above:
SMILES	target	test	system	conditions	inhibition
Cc1ccc(C(=O)Nc2ccc3ccccc3c2)o1	Inward rectifier potassium channel 2 (KCNJ2, Homo sapiens, UniProt P63252)	ion current, inhibitor, whole-cell patch clamp		10 µM	9.96% and 2.35% and 4.1% and 4.28% and 3.13%
Oc1ccc(-c2nc(-c3ccncc3)c(-c3ccc(F)cc3)[nH]2)cc1	CSNK1E	inhibitor		1 µM	63%
Cc1ccnc(C)c1OC[C@H]1CN(CCN2CCc3ccccc32)CCO1	HTR6	radioligand binding		concentration not given, together with: [3H]LSD	3%
